Values quoted from earlier work that unrelated publications cite.
Lines come from different studies, so protocols differ.
UniProt Q15303, sequence (whole entry, looked up): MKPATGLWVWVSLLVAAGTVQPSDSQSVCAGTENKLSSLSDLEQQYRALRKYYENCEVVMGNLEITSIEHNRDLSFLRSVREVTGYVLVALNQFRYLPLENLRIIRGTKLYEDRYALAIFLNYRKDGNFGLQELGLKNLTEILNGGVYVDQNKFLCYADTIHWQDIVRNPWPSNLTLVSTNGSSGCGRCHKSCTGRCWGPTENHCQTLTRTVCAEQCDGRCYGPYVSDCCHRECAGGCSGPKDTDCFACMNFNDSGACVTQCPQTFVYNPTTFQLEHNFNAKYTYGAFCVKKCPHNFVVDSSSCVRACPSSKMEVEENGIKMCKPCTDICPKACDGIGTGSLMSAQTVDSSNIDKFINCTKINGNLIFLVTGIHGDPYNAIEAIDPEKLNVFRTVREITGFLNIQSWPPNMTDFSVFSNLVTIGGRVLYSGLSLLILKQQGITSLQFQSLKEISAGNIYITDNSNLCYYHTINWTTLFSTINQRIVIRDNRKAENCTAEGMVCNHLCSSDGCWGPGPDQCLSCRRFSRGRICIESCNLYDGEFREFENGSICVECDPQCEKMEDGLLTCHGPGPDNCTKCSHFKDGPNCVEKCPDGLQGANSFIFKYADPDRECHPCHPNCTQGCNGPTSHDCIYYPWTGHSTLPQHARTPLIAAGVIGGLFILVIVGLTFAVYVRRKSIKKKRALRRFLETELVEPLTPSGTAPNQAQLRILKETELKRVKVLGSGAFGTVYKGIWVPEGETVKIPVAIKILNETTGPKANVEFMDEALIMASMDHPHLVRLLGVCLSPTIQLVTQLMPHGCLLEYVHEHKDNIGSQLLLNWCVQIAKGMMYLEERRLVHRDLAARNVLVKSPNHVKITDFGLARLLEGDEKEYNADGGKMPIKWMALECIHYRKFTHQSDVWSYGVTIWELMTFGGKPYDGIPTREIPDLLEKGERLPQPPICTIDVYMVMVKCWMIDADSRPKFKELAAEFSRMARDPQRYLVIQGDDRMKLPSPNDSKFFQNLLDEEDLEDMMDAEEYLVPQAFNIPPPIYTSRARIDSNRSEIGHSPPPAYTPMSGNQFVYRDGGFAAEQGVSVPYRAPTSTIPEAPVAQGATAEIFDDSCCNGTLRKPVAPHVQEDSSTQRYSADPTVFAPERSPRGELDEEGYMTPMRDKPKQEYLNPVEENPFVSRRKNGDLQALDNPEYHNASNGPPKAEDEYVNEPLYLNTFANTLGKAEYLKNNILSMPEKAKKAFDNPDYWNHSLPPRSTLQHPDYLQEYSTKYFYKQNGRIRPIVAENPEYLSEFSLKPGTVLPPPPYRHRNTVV

FC(F)(F)C(F)(F)C(F)(F)C(F)(F)C(F)(F)C(F)(F)C(F)(F)C(F)(F)C(F)(F)C(F)(F)F  activity (CYP2C9; concentration not given): inactive
COC(=O)N[C@H](C(=O)N1CCC[C@H]1c1nc(-c2ccc3c(c2)O[C@@H](c2ccccc2)n2c-3cc3cc(-c4c[nH]c([C@@H]5CCCN5C(=O)[C@@H](NC(=O)OC)C(C)C)n4)ccc32)c[nH]1)C(C)C  IC50 (CYP2C9; inhibitor; human liver microsomes): > 100 µM
CC(=O)Nc1ccc(O)cc1  Vmax (CYP2C9; substrate): 0.0864 pmol/min/pmol
COc1cc2c(Oc3ccc4[nH]c(C)cc4c3F)ccnc2cc1OCC1(N)CC1  IC50 (CYP2C9; reversible inhibitor): 1.56 µM
FC(F)OC(Cl)C(F)(F)F (centres unmarked)  IC50 (CYP2C9; inhibitor; Tox21 screening): inactive
Nc1cc(C(F)(F)F)c(-c2nc(N3CCOCC3)nc(N3CCOCC3)n2)cn1  remaining activity (Receptor tyrosine-protein kinase erbB-4 (ERBB4, Homo sapiens, UniProt Q15303); enzyme activity; 10 µM; relative to: untreated): 79%
Cc1nn(C)cc1S(=O)(=O)NC(=O)c1ccc(-n2ccc(OCC(C)(C)C(F)(F)F)n2)nc1N1C[C@@H](C)CC1(C)C  Ki (CYP2C9; inhibitor): 5.45 µM
CNCc1cn(S(=O)(=O)c2cccc(F)c2)c(-c2ccc(F)cc2F)c1OC  IC50 (CYP2C9; enzyme activity, inhibitor): > 50 µM
C=CC(=O)Nc1cc(Nc2nccc(-c3cn(C)c4ccccc34)n2)c(OC)cc1N(C)CCN(C)C  metabolism contribution (CYP2C9): 15.5%
CC(C)(CO)c1cc2cc(NC(=O)C3(c4ccc5c(c4)OC(F)(F)O5)CC3)c(F)cc2n1C[C@@H](O)CO  Ki (CYP2C9; inhibitor): 13.5 µM
N#CCNC(=O)c1ccc(-c2ccnc(Nc3ccc(N4CCOCC4)cc3)n2)cc1  contribution to metabolism (CYP2C9; human hepatocytes): 17%
Fc1c(F)c(F)c(Br)c(F)c1F  activity (CYP2C9; concentration not given): inactive
N#CCNC(=O)c1ccc(-c2ccnc(Nc3ccc(N4CCOCC4=O)cc3)n2)cc1  inhibition (CYP2C9; enzyme activity, inhibitor; concentration not given): no inhibition
O=S(=O)(O)C(F)(F)F  IC50 (CYP2C9; inhibitor; Tox21 screening): inactive

A few entries again:
Cc1nn(C)cc1S(=O)(=O)NC(=O)c1ccc(-n2ccc(OCC(C)(C)C(F)(F)F)n2)nc1N1C[C@@H](C)CC1(C)C  Ki (CYP2C9; inhibitor): 5.45 µM
